# Measured values from different studies.
# Each line is one published result; not all experiments were run side by side.
# Target: Phosphatidylinositol 4,5-bisphosphate 3-kinase catalytic subunit alpha isoform (PIK3CA, Homo sapiens, UniProt P42336)
# Chain of UniProt P42336 (whole entry, looked up): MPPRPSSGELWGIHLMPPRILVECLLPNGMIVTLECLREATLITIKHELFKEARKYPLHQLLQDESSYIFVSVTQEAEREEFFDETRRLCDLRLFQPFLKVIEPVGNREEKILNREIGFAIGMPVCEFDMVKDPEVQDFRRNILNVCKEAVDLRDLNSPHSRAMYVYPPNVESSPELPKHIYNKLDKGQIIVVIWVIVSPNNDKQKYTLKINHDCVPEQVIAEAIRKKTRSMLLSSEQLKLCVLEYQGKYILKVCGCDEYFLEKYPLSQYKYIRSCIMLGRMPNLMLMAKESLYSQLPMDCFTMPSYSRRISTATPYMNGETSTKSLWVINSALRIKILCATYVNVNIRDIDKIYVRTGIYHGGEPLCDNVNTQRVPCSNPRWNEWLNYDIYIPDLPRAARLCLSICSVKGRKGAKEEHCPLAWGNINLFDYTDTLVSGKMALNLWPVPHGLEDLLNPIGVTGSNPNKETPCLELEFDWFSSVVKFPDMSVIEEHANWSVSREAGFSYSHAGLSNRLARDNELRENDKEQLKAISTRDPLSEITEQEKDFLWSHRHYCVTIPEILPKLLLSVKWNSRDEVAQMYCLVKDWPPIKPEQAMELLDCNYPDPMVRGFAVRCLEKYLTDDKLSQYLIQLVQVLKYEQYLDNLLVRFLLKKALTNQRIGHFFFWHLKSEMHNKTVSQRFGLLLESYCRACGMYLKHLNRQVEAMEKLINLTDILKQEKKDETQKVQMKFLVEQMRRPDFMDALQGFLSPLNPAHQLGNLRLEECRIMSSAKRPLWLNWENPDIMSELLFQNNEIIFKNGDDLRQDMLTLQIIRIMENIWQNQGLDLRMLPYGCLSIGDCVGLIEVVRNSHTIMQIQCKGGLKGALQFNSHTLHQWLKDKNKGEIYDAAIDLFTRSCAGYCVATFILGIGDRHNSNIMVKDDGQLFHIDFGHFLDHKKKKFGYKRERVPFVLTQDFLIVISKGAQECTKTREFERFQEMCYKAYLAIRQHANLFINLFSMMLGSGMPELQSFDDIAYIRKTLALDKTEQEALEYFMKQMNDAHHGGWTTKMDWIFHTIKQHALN
SMILES,assay,measurement,value
O=C1/C(=N\c2cccc(Cl)c2)c2ccccc2N1Cc1ccccc1,"enzyme activity, inhibitor, ADP detection",IC50,77.5 nM
Cc1nc(Nc2ccc3c(c2)/C(=C/c2ccccc2Cl)C(=O)N3C)c2ccccc2n1,"enzyme activity, inhibitor, ADP detection",IC50,26 nM
Cc1nc2ccc(C(=O)N[C@H](Cc3ccc(C#Cc4ccc5nccnc5c4)cc3)C(=O)NCCC(=O)N[C@@H](CC(=O)N[C@@H](CCCCNC(=S)Nc3ccc4c(c3)C(=O)OC43c4ccc(O)cc4Oc4cc(O)ccc43)C(=O)O)C(=O)O)cc2nc1C,"binding, SPR",Kd,347 nM
Nc1ncc(-c2nc(N3CCOCC3)nc(N3CCN(C(=O)CCC(=O)NCCCCCCCCCNc4cccc5c4C(=O)N(C4CCC(=O)NC4=O)C5=O)CC3)n2)c(C(F)F)n1 (stereo not shown),"ligand displacement, TR-FRET",Ki,1.66 nM
Cc1nc(Nc2ccc3c(c2)/C(=C/c2ccccc2)C(=O)N3)c2ccccc2n1,"enzyme activity, inhibitor, ADP detection",IC50,18.4 nM
CN1C(=O)CCC(N2C(=O)c3cccc(NCCCCCCCCCNC(=O)CCC(=O)N4CCN(c5nc(-c6cnc(N)nc6C(F)F)nc(N6CCOCC6)n5)CC4)c3C2=O)C1=O (stereo not shown),"ligand displacement, TR-FRET",Ki,3.47 nM
Cc1ccc(CN2C(=O)C3(c4ccccc42)C(c2ccc(F)cc2)NC2(C(=O)N(C(=O)CCc4ccccc4)c4ccccc42)N3Cc2ccc(F)cc2)cc1 (stereo not shown),"enzyme activity, inhibitor, ADP detection",IC50,195 nM
Nc1ncc(-c2nc(N3CCOCC3)nc(N3CCN(C(=O)CCC(=O)N4CCN(CCCCCCNc5cccc6c5C(=O)N(C5CCC(=O)NC5=O)C6=O)CC4)CC3)n2)c(C(F)F)n1 (stereo not shown),"ligand displacement, TR-FRET",Ki,0.851 nM
O=C1/C(=N\c2ccc(Cl)cc2Br)c2ccccc2N1C(=O)c1ccccc1,"enzyme activity, inhibitor, ADP detection",IC50,1080 nM
Cc1nc2ccc(C(=O)NC(Cc3cccc(C#Cc4ccc5nccnc5c4)c3)C(=O)NCCC(=O)N[C@@H](CC(=O)N[C@@H](CCCCNC(=S)Nc3ccc4c(c3)C(=O)OC43c4ccc(O)cc4Oc4cc(O)ccc43)C(=O)O)C(=O)O)cc2nc1C (stereo partly shown),"binding, SPR",Kd,6300 nM

# Some of these lines once more:
SMILES,assay,measurement,value
Cc1nc2ccc(C(=O)N[C@H](Cc3ccc(C#Cc4ccc5nccnc5c4)cc3)C(=O)NCCC(=O)N[C@@H](CC(=O)N[C@@H](CCCCNC(=S)Nc3ccc4c(c3)C(=O)OC43c4ccc(O)cc4Oc4cc(O)ccc43)C(=O)O)C(=O)O)cc2nc1C,"binding, SPR",Kd,347 nM
